Experimental data of several laboratories.
Parts stem from different laboratories: compare values within a part only.

Sample 1
Target: Sal-like protein 4, full length isoform B (SALL4, Homo sapiens, UniProt Q9UJQ4-2, residues 1-616)
Technique: universal PBM
Molecule type: double-stranded DNA, one strand shown
Sample: in vitro
Tested at: not given
Setting: 8-mer, flanks averaged, mean of replicates
Direction: higher = stronger binding
Endpoint: E-score
Target sequence (chain): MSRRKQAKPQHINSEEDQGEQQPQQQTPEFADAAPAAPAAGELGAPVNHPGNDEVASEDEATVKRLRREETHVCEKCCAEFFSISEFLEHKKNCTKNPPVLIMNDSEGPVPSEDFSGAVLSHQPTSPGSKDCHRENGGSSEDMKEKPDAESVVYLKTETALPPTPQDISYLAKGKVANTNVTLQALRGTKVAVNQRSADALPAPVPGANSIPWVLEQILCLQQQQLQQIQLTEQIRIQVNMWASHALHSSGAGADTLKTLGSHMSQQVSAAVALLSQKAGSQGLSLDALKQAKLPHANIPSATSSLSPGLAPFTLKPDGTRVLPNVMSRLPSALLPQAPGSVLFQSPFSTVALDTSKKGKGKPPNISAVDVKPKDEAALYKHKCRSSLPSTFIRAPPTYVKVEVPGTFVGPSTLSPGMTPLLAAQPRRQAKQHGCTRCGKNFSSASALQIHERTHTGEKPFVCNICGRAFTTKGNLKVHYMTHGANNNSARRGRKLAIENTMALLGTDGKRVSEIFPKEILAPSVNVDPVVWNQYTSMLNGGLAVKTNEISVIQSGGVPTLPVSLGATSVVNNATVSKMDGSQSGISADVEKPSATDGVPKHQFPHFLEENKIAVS
GTTTCCTA: 0.0873
CACCTAGC: -0.191
GAACCGAC: -0.328
TAAGCAGA: -0.0529
CCACTGGG: -0.308

Sample 2
Target: RING finger protein unkempt homolog, zinc fingers 1-6, SBP tag (UNK, Homo sapiens, UniProt Q9C0B0, residues 30-357)
Chain of UniProt Q9C0B0 (30-357, looked up): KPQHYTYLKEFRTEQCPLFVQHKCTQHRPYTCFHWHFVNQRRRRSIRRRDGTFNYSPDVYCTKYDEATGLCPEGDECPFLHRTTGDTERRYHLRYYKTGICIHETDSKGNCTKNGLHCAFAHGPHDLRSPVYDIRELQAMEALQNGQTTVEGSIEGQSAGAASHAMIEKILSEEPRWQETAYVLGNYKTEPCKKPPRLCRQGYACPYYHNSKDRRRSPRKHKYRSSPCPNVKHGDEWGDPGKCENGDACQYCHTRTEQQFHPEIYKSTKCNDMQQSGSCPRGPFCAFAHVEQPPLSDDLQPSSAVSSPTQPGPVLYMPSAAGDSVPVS
Technique: RNA Bind-n-Seq
Molecule type: RNA
Sample: in vitro
Tested at: 100 nM
Setting: RNA with constant flanks, vertebrate orthologous sites, ends assumed
Relative to: input RNA pool
Direction: higher = stronger binding
Endpoint: bound/input enrichment
GGGAGUUCUACAGUCCGACGAUCGAUUUGGACCUUGGAGCCAAACUAGGGAGCUGGCAAAAGUAAAGCAGACCUGUAAAUUACAGCUUCAUGCAUCUGCAUAGCACAGUAAUACCACUAGCAGUUGUGUUAAAGUAUUUAUAACAACAGAGGAUUGAGCAUCA: 0.532 ratio
GGGAGUUCUACAGUCCGACGAUCAUAAUCACUCUAAUUGUAAUCUGAAUACAGUGUAACAUUGUGUAGCCUUUUUGUAUAAAAUAGACAAAUAGAAAUGGUCCAAUUAGUUUCCUUUUUAAUAUGCUUAAAAUAAGCAGGUGGCAACAGAGGAUUGAGCAUCA: 2.49 ratio
GGGAGUUCUACAGUCCGACGAUCGGAAAGCUACAGACCAGACUCUGAAAGUAGAAGCACAGGGUCCUGGUUGUCAUCAUCUUUGAGGAACAGAUGUACGCCCCUCUUCUCCAGAAGACGGAGAGAAGGAAGAGAUGAGUCUGCCAACAGAGGAUUGAGCAUCA: 0.293 ratio
GGGAGUUCUACAGUCCGACGAUCAGUAACCCAAGGAUUCAGGACUGGUUUUACAAAUAUGCCAAGUAGAUACGGAGCUAACAAUAGAACUGGACAACCAAGACCAUGAUGUACUGCAAUCUAACUUAUUUUUAUGAGGAACAUCAACAGAGGAUUGAGCAUCA: 0.548 ratio

Sample 3
Target: RNA binding protein fox-1 homolog 2, RRM domain, GST-SBP tag (RBFOX2, Homo sapiens, UniProt O43251-10, residues 100-194)
Technique: RNA Bind-n-Seq
Molecule type: RNA
Sample: in vitro
Tested at: 365 nM
Setting: natural RNA segment, single round, ends assumed
Relative to: no-protein control
Direction: higher = stronger binding
Endpoint: RBNS enrichment (R)
GGGAGUUCUACAGUCCGACGAUCUGGAAUAACCAUGGAGCAAAGAGAACAGAAUCCCAUUCCAAGAGUCCCUCUCUCUCCAACAUCUUGAAGUUUGCAAUUUAGACAGCUCUUUGUUUUCUAAUGCAAUAUGUUGGAAUUCUCGGGUGCCAA: 0.476
GGGAGUUCUACAGUCCGACGAUCGUGUGUUGAGGGACUGGUGUAUCCACUGGAAUAGUUGGUACUCUUGGAUGUGUUUUCUCACCAAGAUGAGCAAAGAAAGGUUUGCACAGAGGAGUGUGAAUGUGUGUUUGUGGAAUUCUCGGGUGCCAA: 1.91
GGGAGUUCUACAGUCCGACGAUCCCAUGCCCUCCAAAUGCUAGAGACCUGGGCCCUGAACCCUGUAGACAGAUGCCCUCAGAAUUGGGGCAUGGGAGGGGGGCUGGGGGACCCCAUGAUUCAGCCACGGACUCUGGAAUUCUCGGGUGCCAA: 1.08
GGGAGUUCUACAGUCCGACGAUCUGUCAGUUUUUGCAAAAAGGCCUGCUGGGGUUUCCAUAGGGAAUGUUUUGAAUCUAUAGAUGAGUCAAGGAAGAACUGCCAUCUUAACAGUAUUGGGUCUUCCGAUUUAUUGGAAUUCUCGGGUGCCAA: 0.9

Mixed results
PhoQ, residues 284 288 289 292 302 303 SIHMAM  fold induction (PhoP, residues 12 14 15 18 19 FWNTL (Escherichia coli, UniProt P23836); Sort-seq, refers to: YFP reporter; E. coli; PhoQ-PhoP variant library, together with: 10 µM Mg2+; relative to: high Mg2+ state, higher = stronger signaling): 5.99

For quick reference, copied from above (sample 3):
GGGAGUUCUACAGUCCGACGAUCUGGAAUAACCAUGGAGCAAAGAGAACAGAAUCCCAUUCCAAGAGUCCCUCUCUCUCCAACAUCUUGAAGUUUGCAAUUUAGACAGCUCUUUGUUUUCUAAUGCAAUAUGUUGGAAUUCUCGGGUGCCAA: 0.476
GGGAGUUCUACAGUCCGACGAUCCCAUGCCCUCCAAAUGCUAGAGACCUGGGCCCUGAACCCUGUAGACAGAUGCCCUCAGAAUUGGGGCAUGGGAGGGGGGCUGGGGGACCCCAUGAUUCAGCCACGGACUCUGGAAUUCUCGGGUGCCAA: 1.08
